{"data": "Measurements collected from several papers", "note": "Numbered parts are unrelated; each lists some results of a single study."}
{"data": "Study 1", "target": "Histone acetyltransferase KAT6A, winged helix 2, GST fusion (KAT6A, Homo sapiens, UniProt Q92794, residues 85-181)", "method": "protein binding microarray", "form": "double-stranded DNA, one strand shown", "sample": "in vitro", "concentration": "not given", "setting": "8-mer, flanks averaged, mean of 2 arrays, mostly near background", "relative to": "not given", "reading": "higher = stronger binding", "Target sequence (chain)": "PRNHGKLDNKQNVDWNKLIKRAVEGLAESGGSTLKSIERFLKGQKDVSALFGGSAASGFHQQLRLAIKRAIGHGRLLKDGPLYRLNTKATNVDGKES"}
{"Sequence": "CTATAGCC", "E-score": -0.196}
{"Sequence": "AAAAGCAG", "E-score": 0.0792}
{"Sequence": "ACCCTACA", "E-score": -0.0924}
{"Sequence": "AAGTCGAC", "E-score": 0.0371}
{"Sequence": "GCCGCACA", "E-score": 0.14}
{"Sequence": "AAAGCGTG", "E-score": -0.0854}
{"data": "Study 2", "target": "Interferon regulatory factor 7, full length, phosphomimetic (IRF7, Homo sapiens, UniProt Q92985, residues 1-503, S471D/S472D/S475D/S476D/S477D/S483D/S484D/S487D)", "method": "protein-binding microarray", "form": "double-stranded DNA, one strand shown", "sample": "in vitro", "concentration": "2200 nM top", "setting": "60-bp whole probe", "together with": "salmon DNA 0.4 mg/ml", "relative to": "random background probes", "reading": "higher = stronger binding", "all sequences stand within": "GCCTAGCAC … GTCTTGATTCGCTTGACGCTGCTG", "Construct (chain)": "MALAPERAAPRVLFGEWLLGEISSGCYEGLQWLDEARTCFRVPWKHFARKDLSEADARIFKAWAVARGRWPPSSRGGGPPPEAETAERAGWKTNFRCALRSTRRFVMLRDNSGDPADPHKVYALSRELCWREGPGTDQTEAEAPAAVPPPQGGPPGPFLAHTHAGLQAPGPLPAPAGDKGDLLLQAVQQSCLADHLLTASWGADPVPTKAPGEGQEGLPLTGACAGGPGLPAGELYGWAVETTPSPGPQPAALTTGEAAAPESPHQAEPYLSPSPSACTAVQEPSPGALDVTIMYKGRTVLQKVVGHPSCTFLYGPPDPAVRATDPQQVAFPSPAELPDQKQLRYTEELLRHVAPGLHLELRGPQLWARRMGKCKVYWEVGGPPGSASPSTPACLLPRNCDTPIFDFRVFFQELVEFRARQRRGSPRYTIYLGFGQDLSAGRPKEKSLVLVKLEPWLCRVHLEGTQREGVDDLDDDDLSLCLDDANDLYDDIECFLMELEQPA"}
{"Sequence": "TTAGGTCCCGGTATCGGTTAGTGCTAG", "fitted relative affinity": "0.46 z-score"}
{"Sequence": "GACGAACTGGGGTTGCGAGACGTGCTA", "fitted relative affinity": "-0.256 z-score"}
{"Sequence": "GACGGACTGCACTTTCGGGACGTGCTA", "fitted relative affinity": "3.87 z-score"}
{"Sequence": "TTAGGACTGGGGTAACGGTTAGTGCTA", "fitted relative affinity": "-0.847 z-score"}
{"Sequence": "TTAGGTTTCGGTCTCGGTTGGTGCTAG", "fitted relative affinity": "7.06 z-score"}
{"data": "Study 3", "target": "Sal-like protein 4, full length isoform A (SALL4, Homo sapiens, UniProt Q9UJQ4, residues 1-1053)", "method": "universal PBM", "form": "double-stranded DNA, one strand shown", "sample": "in vitro", "concentration": "600 nM", "setting": "8-mer, flanks averaged, mean of replicates", "reading": "higher = stronger binding", "sequence of UniProt Q9UJQ4 (whole entry, looked up)": "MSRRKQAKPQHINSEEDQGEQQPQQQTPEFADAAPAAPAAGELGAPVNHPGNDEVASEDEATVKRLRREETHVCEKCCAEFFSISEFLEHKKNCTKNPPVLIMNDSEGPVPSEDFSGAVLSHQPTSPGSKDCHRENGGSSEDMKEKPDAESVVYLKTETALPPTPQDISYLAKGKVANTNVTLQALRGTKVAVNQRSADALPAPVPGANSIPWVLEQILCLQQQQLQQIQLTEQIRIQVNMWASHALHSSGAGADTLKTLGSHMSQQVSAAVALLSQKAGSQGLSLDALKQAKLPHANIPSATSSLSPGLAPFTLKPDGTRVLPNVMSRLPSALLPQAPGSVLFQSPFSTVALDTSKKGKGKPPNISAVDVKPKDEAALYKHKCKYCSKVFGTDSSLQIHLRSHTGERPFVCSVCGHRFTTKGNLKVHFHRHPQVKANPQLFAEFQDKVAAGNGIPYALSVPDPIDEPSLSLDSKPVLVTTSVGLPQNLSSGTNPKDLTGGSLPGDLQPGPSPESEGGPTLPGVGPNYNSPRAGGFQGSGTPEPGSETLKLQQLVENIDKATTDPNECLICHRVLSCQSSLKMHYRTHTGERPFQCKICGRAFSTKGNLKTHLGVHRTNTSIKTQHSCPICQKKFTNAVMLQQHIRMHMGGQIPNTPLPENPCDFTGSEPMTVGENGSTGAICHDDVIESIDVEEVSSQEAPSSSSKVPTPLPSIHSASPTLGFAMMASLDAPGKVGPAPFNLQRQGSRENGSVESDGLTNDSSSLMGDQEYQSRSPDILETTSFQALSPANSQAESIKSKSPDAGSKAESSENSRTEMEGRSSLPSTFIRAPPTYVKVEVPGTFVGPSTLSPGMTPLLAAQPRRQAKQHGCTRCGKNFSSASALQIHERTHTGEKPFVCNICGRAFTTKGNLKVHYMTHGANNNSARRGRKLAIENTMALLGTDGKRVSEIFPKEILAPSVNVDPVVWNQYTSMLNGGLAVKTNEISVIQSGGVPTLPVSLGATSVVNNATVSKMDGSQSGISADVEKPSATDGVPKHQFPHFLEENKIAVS"}
{"Sequence": "ACTACCGA", "E-score": -0.132}
{"Sequence": "CTTTTAAC", "E-score": 0.169}
{"Sequence": "CAACATAG", "E-score": 0.138}
{"Sequence": "GTAAAGAC", "E-score": 0.0018}
{"Sequence": "AGGTACCA", "E-score": -0.161}
{"Sequence": "CATCGTCG", "E-score": -0.166}
{"Sequence": "AAGAGTCA", "E-score": 0.097}
{"data": "Single results of other studies"}
{"Molecule": "PhoQ, residues 284 288 289 292 302 303 SSTLLI", "target": "PhoP, residues 12 14 15 18 19 NQGLL (Escherichia coli, UniProt P23836)", "test": "Sort-seq, item: YFP reporter", "system": "E. coli", "conditions": "PhoQ-PhoP variant library, together with: 10 µM Mg2+", "how to read": "relative to: high Mg2+ state, higher = stronger signaling", "endpoint": "fold induction", "result": 1.12}
{"note": "For quick reference, copied from above (study 3):"}
{"Sequence": "GTAAAGAC", "E-score": 0.0018}
